Experimental data pooled from the literature.
Each line is one published result; not all experiments were run side by side. Numbers after ± are the reported error.
gag-pol integrase: Gag-Pol polyprotein, integrase (gag-pol, Human immunodeficiency virus type 1 group M subtype B, UniProt P04585)
F fusion protein: Fusion glycoprotein F0, fusion protein (F, Parainfluenza virus 5, UniProt P04849)
Chain of UniProt P32300 (whole entry, looked up): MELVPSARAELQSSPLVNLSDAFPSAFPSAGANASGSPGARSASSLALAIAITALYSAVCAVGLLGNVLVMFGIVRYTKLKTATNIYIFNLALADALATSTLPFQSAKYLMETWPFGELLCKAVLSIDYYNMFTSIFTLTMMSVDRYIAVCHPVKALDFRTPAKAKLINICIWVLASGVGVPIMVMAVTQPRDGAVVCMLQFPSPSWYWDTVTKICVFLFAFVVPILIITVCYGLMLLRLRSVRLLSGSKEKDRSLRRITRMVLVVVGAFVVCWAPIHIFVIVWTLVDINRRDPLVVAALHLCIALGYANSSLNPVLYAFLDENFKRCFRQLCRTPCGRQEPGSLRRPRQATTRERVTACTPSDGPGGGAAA

SMILES	target	assay	test system	setting	IC50 [µM]
CC[C@H](C)[C@H](NC(=O)[C@H](C)NC(=O)[C@H](CCC(=O)O)NC(C)=O)C(=O)N[C@H](C(=O)N[C@H]1CCCC=CCCC[C@@H](C(=O)N[C@@H](CC(C)C)C(=O)N[C@@H](CC(C)C)C(=O)N[C@@H](Cc2ccccc2)C(=O)N[C@H](C(=O)N[C@@H](Cc2c[nH]cn2)C(=O)N[C@@H](Cc2ccccc2)C(=O)N[C@@H](CCCNC(=N)N)C(=O)N[C@H](C(=O)NCC(N)=O)[C@@H](C)CC)[C@@H](C)CC)NC(=O)[C@H](CCC(N)=O)NC(=O)[C@H](CC(C)C)NC(=O)[C@H]([C@@H](C)CC)NC1=O)[C@@H](C)CC	gag-pol integrase	3′-end processing, inhibitor	HIV-1		> 111
CC(C)C[C@H](NC(=O)[C@H](Cc1ccccc1)NC(=O)[C@H](Cc1ccc(O)cc1)NC(=O)[C@H](C)NC(=O)[C@@H](N)[C@@H](C)O)C(=O)N[C@@H](CC(C)C)C(=O)N[C@@]1(C)CCCC=CCCC[C@@](C)(C(=O)N[C@@H](Cc2c[nH]c3ccccc23)C(N)=O)NC(=O)CNC(=O)[C@H](C)NC(=O)[C@H](CC(C)C)NC1=O	gag-pol integrase	integrase 3'-processing, inhibitor			> 100
NC(=O)[C@H](CO)NC(=O)[C@@H]1CCCN1C(=O)[C@H](Cc1ccc(O)cc1)NC(=O)CNC(=O)[C@H](Cc1ccccc1)NC(=O)[C@@H](CCCNC(=O)CBr)NC(=O)[C@@H](N)Cc1ccc(O)cc1	Delta-type opioid receptor (Oprd1, Mus musculus, UniProt P32300)	radioligand binding	CHO cells	together with: 0.15 nM [3H]DPDPE	0.342 ± 0.02
CSCC[C@H](NC(=O)[C@H](CCCNC(=N)N)NC(=O)[C@H](CCCNC(=N)N)NC(=O)[C@@H](NC(=O)[C@@H](N)CCC(=O)O)[C@@H](C)O)C(=O)N[C@@H](CC(C)C)C(=O)N[C@@H](Cc1c[nH]cn1)C(=O)N[C@@H](CCCNC(=N)N)C(=O)N[C@@H](C)C(=O)N[C@@H](Cc1ccccc1)C(=O)N[C@@H](CC(=O)O)C(=O)N[C@H](C(=O)N[C@@H](CC(C)C)C(=O)N[C@@H](C)C(=O)O)[C@@H](C)O	DNA polymerase processivity factor, with UL42 processivity factor (Human herpesvirus 1, UniProt P10226)	processive DNA synthesis, inhibitor		30 min, 37 °C	> 200
CNCc1ccc2c(c1)N(C(=O)OCc1c(F)c(F)c(F)c(F)c1F)[C@H](CNC(=N)N)[C@H]2NC(=O)C(=O)Nc1ccc(Cl)c(F)c1	env (Human immunodeficiency virus 1, UniProt Q202J8)	pseudovirus infection, luciferase reporter	TZM-bl	48 h	10.6
CC[C@H](C)[C@@H]1NC(=O)[C@H](C)NC(=O)[C@@H](NC(C)=O)CCCC=CCCC[C@@H](C(=O)N[C@H](C(=O)N[C@@H](CC(C)C)C(=O)N[C@@H](CCC(N)=O)C(=O)N[C@@H](CCC(N)=O)C(=O)N[C@@H](CC(C)C)C(=O)N[C@@H](CC(C)C)C(=O)N[C@@H](Cc2ccccc2)C(=O)N[C@H](C(=O)N[C@@H](Cc2c[nH]cn2)C(=O)N[C@@H](Cc2ccccc2)C(=O)N[C@@H](CCCNC(=N)N)C(=O)N[C@H](C(=O)NCC(N)=O)[C@@H](C)CC)[C@@H](C)CC)[C@@H](C)CC)NC(=O)[C@H]([C@@H](C)CC)NC1=O	gag-pol integrase	strand transfer, inhibitor	HIV-1		3.8 ± 0.7
CC(C)C[C@H](NC(=O)[C@H](CCCCN)NC(=O)[C@H](CC(C)C)NC(=O)[C@]1(C)CCCC=CCCC[C@](C)(N)C(=O)N[C@@H](C)C(=O)N[C@@H](Cc2ccc(O)cc2)C(=O)N[C@@H](Cc2ccccc2)C(=O)N1)C(=O)N[C@@H](C)C(=O)NCC(=O)N[C@@H](CCCNC(=N)N)C(=O)N[C@@H](Cc1c[nH]c2ccccc12)C(N)=O	gag-pol integrase	integrase 3'-processing, inhibitor			53 ± 15
O=C1c2c(ccc(O)c2O)CN1Cc1ccc(F)c(Cl)c1	Gag-Pol polyprotein, integrase (gag-pol, Human immunodeficiency virus 1, UniProt P12497, Y1290R)	enzyme activity, inhibitor			2.5 ± 0.3
CC[C@H](C)[C@H](NC(=O)[C@H](C)NC(=O)[C@H](CO)NC(=O)[C@H](CC(C)C)NC(=O)[C@H](Cc1ccc(O)cc1)NC(=O)[C@@H](NC(=O)[C@H](CC(=O)O)NC(=O)[C@H](CO)NC(=O)[C@H](CCC(N)=O)NC(=O)[C@H](C)NC(=O)[C@H](CC(C)C)NC(=O)[C@H](Cc1c[nH]cn1)NC(=O)[C@H](CCC(N)=O)NC(=O)[C@H](CC(C)C)NC(=O)[C@H](C)NC(=O)[C@H](CC(=O)O)NC(=O)[C@H](CO)NC(=O)[C@H](CC(C)C)NC(=O)[C@H](CO)NC(=O)[C@H](CCCCN)NC(=O)[C@H](CC(N)=O)NC(=O)[C@@H](NC(=O)[C@H](C)NC(=O)[C@H](C)NC(=O)[C@H](CC(C)C)NC(=O)[C@H](CC(N)=O)NC(=O)[C@H](CCC(N)=O)NC(=O)[C@H](CO)NC(=O)[C@H](Cc1ccccc1)NC(=O)[C@H](CC(=O)O)NC(=O)[C@H](CC(C)C)NC(=O)[C@@H]1CCCN1C(=O)[C@H](CC(=O)O)NC(=O)[C@@H](NC(=O)[C@H](CO)NC(=O)[C@H](CC(C)C)NC(=O)[C@@H](NC(=O)[C@H](CCC(N)=O)NC(=O)[C@H](CO)NC(=O)[C@H](CO)NC(=O)[C@H](CCC(=O)O)NC(=O)[C@H](CC(C)C)NC(=O)[C@@H](N)CCCCN)[C@@H](C)CC)[C@@H](C)CC)C(C)C)[C@@H](C)O)C(=O)O	F fusion protein	cell-cell fusion, inhibitor, luciferase reporter	Vero plus BSR-T7 cells	6 h, 37 °C, together with: SV5 F and HN	0.151 ± 0.012
CC[C@H](C)[C@H](N)C(=O)N[C@@H](CC(N)=O)C(=O)N[C@@H](CC(N)=O)C(=O)N[C@H](C(=O)N1C[C@@H](n2cc([C]34[CH]5[CH]6[CH]7[CH]3[Fe]6754389%10[CH]4[CH]3[CH]8[CH]9[CH]4%10)nn2)C[C@H]1C(=O)N[C@@H](Cc1ccc(O)cc1)C(N)=O)[C@@H](C)CC (stereo partly drawn)	Envelope glycoprotein gp160, gp120 (env, Human immunodeficiency virus type 1 group M subtype B, UniProt P35961, I108A)	binding to soluble CD4, inhibitor, competition SPR		gp120 I109A mutant	3.1 ± 0.3
CC[C@H](C)[C@H](NC(=O)[C@H](C)NC(=O)[C@H](CO)NC(=O)[C@H](CC(C)C)NC(=O)[C@H](Cc1ccc(O)cc1)NC(=O)[C@@H](NC(=O)[C@H](CC(=O)O)NC(=O)[C@H](CO)NC(=O)[C@H](CCC(N)=O)NC(=O)[C@H](C)NC(=O)[C@H](CC(C)C)NC(=O)[C@H](Cc1c[nH]cn1)NC(=O)[C@H](CCC(N)=O)NC(=O)[C@H](CC(C)C)NC(=O)[C@H](C)NC(=O)[C@H](CC(=O)O)NC(=O)[C@H](CO)NC(=O)[C@H](CC(C)C)NC(=O)[C@H](CO)NC(=O)[C@H](CCCCN)NC(=O)[C@H](CC(N)=O)NC(=O)[C@@H](NC(=O)[C@H](C)NC(=O)[C@H](C)NC(=O)[C@H](CC(C)C)NC(=O)[C@H](CC(N)=O)NC(=O)[C@H](CCC(N)=O)NC(=O)[C@H](CO)NC(=O)[C@@H](NC(=O)[C@H](CC(=O)O)NC(=O)[C@H](Cc1ccccc1)NC(=O)[C@@H]1CCCN1C(=O)[C@H](CC(=O)O)NC(=O)[C@@H](NC(=O)[C@H](CO)NC(=O)[C@H](CC(C)C)NC(=O)[C@@H](NC(=O)[C@H](CCC(N)=O)NC(=O)[C@H](CO)NC(=O)[C@H](CO)NC(=O)[C@H](CCC(=O)O)NC(=O)[C@H](CC(C)C)NC(=O)[C@@H](N)CCCCN)[C@@H](C)CC)[C@@H](C)CC)[C@@H](C)CC)C(C)C)[C@@H](C)O)C(=O)O	F fusion protein	cell-cell fusion, inhibitor, luciferase reporter	Vero plus BSR-T7 cells	6 h, 37 °C, together with: SV5 F and HN	0.1 ± 0.012
C=CCCC[C@H](NC(=O)[C@H](CC(C)C)NC(=O)[C@H](CCC(N)=O)NC(=O)[C@H](CCC(N)=O)NC(=O)[C@H](CCCC=C)NC(=O)[C@@H](NC(=O)[C@H](CCCNC(=N)N)NC(=O)[C@@H](NC(=O)[C@@H](NC(=O)[C@H](C)NC(=O)[C@H](CCC(=O)O)NC(C)=O)[C@@H](C)CC)[C@@H](C)CC)[C@@H](C)CC)C(=O)N[C@@H](Cc1ccccc1)C(=O)N[C@H](C(=O)N[C@@H](Cc1c[nH]cn1)C(=O)N[C@@H](Cc1ccccc1)C(=O)N[C@@H](CCCNC(=N)N)C(=O)N[C@H](C(=O)NCC(N)=O)[C@@H](C)CC)[C@@H](C)CC	gag-pol integrase	3′-end processing, inhibitor	HIV-1		2.1 ± 0.2

Excerpt of the above:
SMILES	target	assay	test system	setting	IC50 [µM]
CC(C)C[C@H](NC(=O)[C@H](Cc1ccccc1)NC(=O)[C@H](Cc1ccc(O)cc1)NC(=O)[C@H](C)NC(=O)[C@@H](N)[C@@H](C)O)C(=O)N[C@@H](CC(C)C)C(=O)N[C@@]1(C)CCCC=CCCC[C@@](C)(C(=O)N[C@@H](Cc2c[nH]c3ccccc23)C(N)=O)NC(=O)CNC(=O)[C@H](C)NC(=O)[C@H](CC(C)C)NC1=O	gag-pol integrase	integrase 3'-processing, inhibitor			> 100
NC(=O)[C@H](CO)NC(=O)[C@@H]1CCCN1C(=O)[C@H](Cc1ccc(O)cc1)NC(=O)CNC(=O)[C@H](Cc1ccccc1)NC(=O)[C@@H](CCCNC(=O)CBr)NC(=O)[C@@H](N)Cc1ccc(O)cc1	Delta-type opioid receptor (Oprd1, Mus musculus, UniProt P32300)	radioligand binding	CHO cells	together with: 0.15 nM [3H]DPDPE	0.342 ± 0.02
